Measured values pooled from the literature.
Protocols differ between the studies behind these lines. Values joined by “and” are separate records of one study, mostly repeats; a detail may differ. ± marks the error that the study gave.
UniProt P10632, sequence (whole entry, looked up): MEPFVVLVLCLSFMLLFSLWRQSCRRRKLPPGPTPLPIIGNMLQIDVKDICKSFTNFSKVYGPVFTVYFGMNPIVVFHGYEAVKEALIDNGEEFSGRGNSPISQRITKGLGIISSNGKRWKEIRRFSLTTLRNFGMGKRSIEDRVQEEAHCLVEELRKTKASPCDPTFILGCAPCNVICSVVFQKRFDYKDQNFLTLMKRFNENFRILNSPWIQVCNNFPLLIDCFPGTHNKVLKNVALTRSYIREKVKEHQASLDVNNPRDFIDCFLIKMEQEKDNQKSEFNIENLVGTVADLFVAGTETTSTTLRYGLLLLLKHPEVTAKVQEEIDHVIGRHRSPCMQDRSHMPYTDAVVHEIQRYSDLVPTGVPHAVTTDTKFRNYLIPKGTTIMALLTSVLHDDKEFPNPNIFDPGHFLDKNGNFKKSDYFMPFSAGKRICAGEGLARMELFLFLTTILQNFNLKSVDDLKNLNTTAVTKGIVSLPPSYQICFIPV
UniProt P02769, sequence (whole entry, looked up): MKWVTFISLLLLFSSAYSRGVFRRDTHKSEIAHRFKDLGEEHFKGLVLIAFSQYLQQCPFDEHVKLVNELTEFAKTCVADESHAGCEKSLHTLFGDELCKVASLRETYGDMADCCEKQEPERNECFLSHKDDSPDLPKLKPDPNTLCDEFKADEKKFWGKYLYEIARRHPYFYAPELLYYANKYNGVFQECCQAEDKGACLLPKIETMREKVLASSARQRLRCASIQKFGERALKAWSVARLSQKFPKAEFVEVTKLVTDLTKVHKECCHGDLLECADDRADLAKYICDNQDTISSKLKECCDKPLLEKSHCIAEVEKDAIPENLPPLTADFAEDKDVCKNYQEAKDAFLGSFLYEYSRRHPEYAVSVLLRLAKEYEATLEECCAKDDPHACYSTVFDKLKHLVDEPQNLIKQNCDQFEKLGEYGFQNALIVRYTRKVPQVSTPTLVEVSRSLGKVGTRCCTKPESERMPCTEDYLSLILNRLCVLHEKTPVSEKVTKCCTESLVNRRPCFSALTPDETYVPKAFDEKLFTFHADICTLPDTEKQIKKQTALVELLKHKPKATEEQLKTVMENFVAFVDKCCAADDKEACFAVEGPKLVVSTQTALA

The tracer uptake of `N#C[C@@H]1CC(F)(F)CN1C(=O)CNC(=O)c1ccnc2c(NC(=O)CCOCCOCCOCCOCCOCCOCCNC(=O)[C@H](CCCCNC(=O)CN3CCN(CC(=O)[O-])CCN(CC(=O)[O-])CCN(CC(=O)[O-])CC3)NC(=O)CCCc3ccc(I)cc3)cccc12.[177Lu+3]` is reported as 1.68 %ID/g (U-87 MG tumour model; host not given, heart; 1 h, tumour-bearing).
Under “revertant fold increase”, `CC(C)OCCOCc1ccc(OCC(O)CN(N=O)C(C)C)cc1` (centres unmarked) is recorded as 0.8 fold (Escherichia coli; Ames test; WP2 uvrA; 1580 µg/plate, without metabolic activation; relative to: solvent control).
`CN(Cc1ccccc1)C(=O)CN1CCN(CC(=O)[O-])CCN(Cc2cccc(C(=O)[O-])n2)CC1.[177Lu+3]` has a tracer uptake of 10.7 %ID/g (mouse, kidney; intravenous, 1 h).
The revertant colonies of `O=C1NC2(CC2)COc2ncc(F)cc2[C@H]2COCCN2c2ccn3ncc1c3n2` is reported as 8 ± 2 revertants/plate (Salmonella typhimurium; Ames test; TA1535; 1500 µg/plate, 48 h, together with: without S9).
For `N#C[C@@H]1CC(F)(F)CN1C(=O)CNC(=O)c1ccnc2c(NC(=O)[C@H](CCCCNC(=O)CCOCCOCCOCCOCCOCCOCCNC(=O)CN3CCN(CC(=O)[O-])CCN(CC(=O)[O-])CCN(CC(=O)[O-])CC3)NC(=O)CCCc3ccc(I)cc3)cccc12.[177Lu+3]`, the tracer uptake was 2.88 %ID/g (U-87 MG tumour model; host not given, tumour; 72 h, tumour-bearing).
`CN(C)c1ccc2c(c1)C(C)(C)c1cc(N(C)C)ccc1C21OC(=O)c2cc(C(=O)O)ccc21` has a Kd of 430 ± 39 µM (Albumin (ALB, Bos taurus, UniProt P02769); binding, fluorescence titration; PBS).
`Nc1nc2cc(C(=O)c3ccc(F)cc3)ccc2[nH]1` gave a revertants of 18 revertants/plate (Salmonella typhimurium; Ames preincubation test; TA1535; 78.0 µg/plate, without S9).
With `Cc1ccc(Nc2n[nH]c3nc(-c4ccccc4)nc(N)c23)cc1` the CC50 was over 158 µM (HeLa Ohio; 72 h).
The tracer uptake of `O=C([O-])CN1CCN(CC(=O)[O-])CCN(Cc2cccc(C(=O)[O-])n2)CC1.[18F-].[Sc+3]` is reported as 0.09 %ID/g (mouse, spleen; intravenous, 1 h).
Under “amount in cell extract”, `OC(Cc1cc(-c2ccc(C(O)C(F)(F)F)s2)sc1-c1ccc(-c2sc(-c3ccc(C(O)C(F)(F)F)s3)cc2CC(O)C(F)(F)F)s1)C(F)(F)F` (centres unmarked) is recorded as 1.78 nmol and 1.56 nmol and 2 nmol (primary human fetal neurons; LC-MS/MS; 4 µM, 120 min, replicate 1).
`N#C[C@@H]1CC(F)(F)CN1C(=O)CNC(=O)c1ccnc2c(NC(=O)[C@@H](N)CCCCNC(=O)CCOCCOCCOCCOCCOCCOCCNC(=O)CN3CCN(CC(=O)[O-])CCN(CC(=O)[O-])CCN(CC(=O)[O-])CC3)cccc12.[177Lu+3]` gave a tracer uptake of 0.04 %ID/g (U-87 MG tumour model; host not given, stomach; 48 h, tumour-bearing).
For `N#C[C@@H]1CCCN1C(=O)CNC(=O)c1ccnc2ccc(OCCCN3CCN(C(=O)CCc4ccc5c(c4)CN4CCN(Cc6cc(CCC(=O)O)ccc6O)CC(=O)[O][Al-]([18F])([O]C(=O)C4)[O]5)CC3)cc12` (some centres unmarked), the tracer uptake was 1.88 %ID/g (U-87 MG tumour model; host not given, pancreas; 1 h, tumour-bearing).
`Nc1nc(-c2cc(C(F)(F)F)cc(C(F)(F)F)c2)nc2[nH]nc(Nc3ccc(Cl)cc3)c12` gave a CC50 of 9.3 µM (HeLa Ohio; 72 h).
`COc1cccc(OC)c1-c1cc(C(=O)NC2(C(=O)O)C3CC4CC(C3)CC2C4)nn1-c1ccc(C(=O)N(C)CCCN(C)CCCN(C)C(=O)[C@H](CCCCNC(=O)[C@H](CC(C)C)NC(=O)C2OC2C(=O)O)NC(=O)CN2CCN(CC(=O)[O-])CCN(CC(=O)[O-])CCN(CC(=O)[O-])CC2)cc1C(C)C.[177Lu+3]` (mixture of isomers) gave a tracer uptake of 0.37 %ID/g (HT-29 tumour model; host not given, stomach; 24 h, tumour-bearing).
The CC50 of `CCOc1ccc(Nc2n[nH]c3nc(-c4ccccc4)nc(N)c23)cc1` is reported as over 144 µM (HeLa Ohio; 72 h).
`CCN(CC)CC#CCNc1ccnc2cc(Cl)ccc12` has a revertants of 0 revertants/well (Salmonella typhimurium; mini-Ames test; TA97a; 250.0 µg/well, without S9).
For `Nc1nc(-c2ccccc2)nc2[nH]nc(Nc3ccc(F)cc3F)c12`, the CC50 was over 148 µM (HeLa Ohio; 72 h).
`CC(C)Cc1ccc(C(C)C(=O)N[C@@H](CCCCNC(=O)CCOCCOCCOCCOCCOCCOCCNC(=O)CN2CCN(CC(=O)[O-])CCN(CC(=O)[O-])CCN(CC(=O)[O-])CC2)C(=O)Nc2cccc3c(C(=O)NCC(=O)N4CC(F)(F)C[C@H]4C#N)ccnc23)cc1.[177Lu+3]` (some centres unmarked) has a tracer uptake of 4.85 %ID/g (U-87 MG tumour model; host not given, liver; 4 h, tumour-bearing).
For `Nc1nc(-c2ccc(Cl)cc2)nc2[nH]nc(Nc3cccc(F)c3)c12`, the CC50 was 113 µM (HeLa Ohio; 72 h).
With `CNC(=O)C1CCCN(C(=O)C2CC3CCC2N3C(=O)[C@@H]2C[C@@H](O)CN2C(=O)NCc2cccc(Cl)c2F)C1` (mixture of isomers) the remaining activity was 81.1% and 84.9% and 95.4% (Cytochrome P450 2C8 (CYP2C8, Homo sapiens, UniProt P10632); preincubation without NADPH; human; 1.85 µM; relative to: negative control).
`Oc1nc(-c2ccccc2)nc2[nH]nc(Nc3cccc(F)c3)c12` gave a CC50 of over 156 µM (HeLa Ohio; 72 h).
For `O=C1C2CC3CC1CC(C(=O)N1CCN(c4ccc([N+](=O)[O-])c5ncccc45)CC1)(C3)C2`, “revertant fold increase” read 0.9 (Salmonella typhimurium; Ames test; TA97a; 0.02 µg/well, without S9; relative to: vehicle).
`Nc1nc(-c2ccccc2)nc2[nH]nc(NC3CCCCC3)c12` has a CC50 of over 162 µM (HeLa Ohio; 72 h).
With `CC[C@H](C)[C@@H]1NC(=O)[C@H](Cc2ccc(O)cc2)NC(=O)CCCSC[C@@H](C(=O)N(CC(=O)N[C@@H](CC(C)C)C(=O)NCC(N)=O)Cc2ccc(F)cc2)NC(=O)[C@H](CC(N)=O)NC(=O)[C@H](CCC(N)=O)NC1=O` the AUC(0-last) was 0.056 ng·h/mL (healthy human females, plasma; intranasal, 200 µg single dose).
`Fc1ccc(Nc2n[nH]c3nc(-c4ccccc4)nc(NCc4ccccc4)c23)cc1` gave a CC50 of over 122 µM (HeLa Ohio; 72 h).
For `CN(Cc1ccccc1)C(=O)CN1CCN(CC(=O)[O-])CCN(CC(=O)N(C)Cc2ccccc2)CC1.[44Sc+3]`, the tracer uptake was 2.61 %ID/g (mouse, stomach; intravenous, 1 h).

Some of these lines once more:
`Nc1nc(-c2ccccc2)nc2[nH]nc(NC3CCCCC3)c12` has a CC50 of over 162 µM (HeLa Ohio; 72 h).
